Assay results of several laboratories.
Every numbered part comes from another study and shows a few of its results, in no order. Positions count from the first letter of the parent shown.

Series 1
Target: Interferon regulatory factor 7, full length, phosphomimetic (IRF7, Homo sapiens, UniProt Q92985, residues 1-503, S101K/S471D/S472D/S475D/S476D/S477D/S483D/S484D/S487D)
Technique: protein-binding microarray
Molecule type: double-stranded DNA, one strand shown
Medium: in vitro
Tested at: 250 nM
Setting: 60-bp whole probe
Together with: salmon DNA 0.4 mg/ml
Reference: random background probes
Direction: higher = stronger binding
All sequences stand within: GCCTAGCAC … GTCTTGATTCGCTTGACGCTGCTG
Construct (chain): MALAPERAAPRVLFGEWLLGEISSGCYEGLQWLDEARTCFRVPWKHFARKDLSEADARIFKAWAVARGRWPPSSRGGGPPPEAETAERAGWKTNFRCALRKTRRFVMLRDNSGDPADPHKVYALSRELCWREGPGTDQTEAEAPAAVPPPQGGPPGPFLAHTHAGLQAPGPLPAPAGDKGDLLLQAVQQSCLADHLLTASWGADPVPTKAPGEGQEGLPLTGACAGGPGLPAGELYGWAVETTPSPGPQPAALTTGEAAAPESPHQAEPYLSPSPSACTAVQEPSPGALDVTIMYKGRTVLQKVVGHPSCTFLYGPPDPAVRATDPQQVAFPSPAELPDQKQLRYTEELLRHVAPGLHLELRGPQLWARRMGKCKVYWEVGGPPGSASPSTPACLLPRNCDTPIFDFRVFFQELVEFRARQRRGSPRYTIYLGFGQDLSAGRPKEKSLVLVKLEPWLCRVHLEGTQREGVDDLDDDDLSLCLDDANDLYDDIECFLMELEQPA
Sequence | log fluorescence [z-score]
TTAGAACTGGGGTTTCGATTAGTGCTA | 5.74
AGTGATAACTTTTTTTTTTCGTGCTAG | -0.238
TTAGGTCTCGGTTTCGTTTAGTGCTAG | 11.5
GACGAACTGAGTATCGAGGCGTGCTAG | -0.285
GACGCACTGGGGTTTCGAGACGTGCTA | 2.06
GACGGCCTGCTACTGCTGACGTGCTAG | -0.972
TTAGGTATCCTTTTTCTTTAGTGCTAG | 1.3
GTCGGACTGGGACTGGGGACGTGCTAG | -0.424
CTCTTGTTCTCTCTGGCCCTGTGCTAG | 0.82
TTAGATTTCAGGTTTCGATTAGTGCTA | 7.99
TCACCTTTTCTTTACTGACTGTGCTAG | 1.26
TCTGTTTCTGATATGGTATGGTGCTAG | 2.25
TTAGGCATCGGTTTCGGTTAGTGCTAG | 8.94
TCACATCTCCAGTAGCCTACTGTGCTA | 0.287
GACGAACTGAGTCTCGAGACGTGCTAG | 0.136
TTAGGTATCCTTTCCCTTTAGTGCTAG | 1.18
TTAGAACTGAGTCGCGATTAGTGCTAG | 0.465
GACGGTATCGGGCTCGGGACGTGCTAG | -0.377
TGCTTTCTCCCAAGTCTTGTTGTGCTA | 1.79
GACGGTATCGGTTTCGGGAAGTGCTAG | 6.34
CTAGGTATCGACTTTCGGTTAGTGCTA | 3.59
GATGGTATCGGGTATCGGGACGTGCTA | 0.336
GACGGACTGGGACTGGGGGCGTGCTAG | 0.336
TTAGATTTCGGGTTTCGATTCGTGCTA | 11.4

Series 2
Target: Sal-like protein 4, full length isoform A (SALL4, Homo sapiens, UniProt Q9UJQ4, residues 1-1053)
UniProt Q9UJQ4, sequence (whole entry, looked up): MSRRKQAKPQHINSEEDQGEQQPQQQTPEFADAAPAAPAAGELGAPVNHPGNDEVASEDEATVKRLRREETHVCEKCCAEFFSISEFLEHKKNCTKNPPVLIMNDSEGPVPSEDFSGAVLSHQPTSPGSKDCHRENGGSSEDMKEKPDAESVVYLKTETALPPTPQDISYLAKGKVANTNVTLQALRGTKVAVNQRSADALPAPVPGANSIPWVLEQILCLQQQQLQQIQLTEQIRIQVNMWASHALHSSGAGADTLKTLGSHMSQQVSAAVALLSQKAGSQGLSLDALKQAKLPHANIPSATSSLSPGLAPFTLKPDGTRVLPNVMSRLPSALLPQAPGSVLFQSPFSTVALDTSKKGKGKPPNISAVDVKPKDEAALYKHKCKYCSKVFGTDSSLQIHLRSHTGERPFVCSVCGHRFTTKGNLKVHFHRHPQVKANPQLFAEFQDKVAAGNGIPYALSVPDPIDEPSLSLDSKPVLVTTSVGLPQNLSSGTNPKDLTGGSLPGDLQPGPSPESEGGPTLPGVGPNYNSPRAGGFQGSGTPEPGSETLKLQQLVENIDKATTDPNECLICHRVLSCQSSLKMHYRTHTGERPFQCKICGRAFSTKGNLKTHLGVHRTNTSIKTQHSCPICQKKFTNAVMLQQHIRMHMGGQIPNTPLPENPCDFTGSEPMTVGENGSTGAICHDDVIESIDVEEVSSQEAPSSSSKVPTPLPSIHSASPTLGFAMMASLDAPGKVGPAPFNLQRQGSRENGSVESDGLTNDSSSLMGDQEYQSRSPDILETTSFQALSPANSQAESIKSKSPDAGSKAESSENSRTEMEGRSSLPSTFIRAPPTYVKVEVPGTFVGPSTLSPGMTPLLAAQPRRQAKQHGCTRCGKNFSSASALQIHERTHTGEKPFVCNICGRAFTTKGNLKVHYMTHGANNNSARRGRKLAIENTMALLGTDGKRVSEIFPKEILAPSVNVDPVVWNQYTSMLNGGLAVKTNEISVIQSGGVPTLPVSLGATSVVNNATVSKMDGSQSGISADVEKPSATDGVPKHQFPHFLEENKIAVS
Technique: universal PBM
Molecule type: double-stranded DNA, one strand shown
Medium: in vitro
Tested at: 600 nM
Setting: 8-mer, flanks averaged, mean of replicates
Direction: higher = stronger binding
Sequence | E-score
CATACCCG | -0.214
CCATAGAC | -0.0343
GACAGCGA | -0.197
AGATGTCA | 0.095
CGAGGAGA | -0.196
CGGAATCC | -0.169
GATCTAAC | 0.0104
GGAAGATA | 0.182
GCGTTCTA | -0.093
CTGCATGC | -0.133
CGAACGGC | -0.206
GGTGACGA | 0.0548
CTACCTTA | 0.021
GATCACGA | -0.0212
CGCGCGCA | -0.212
AATATAAG | 0.391
TAAGCGCA | -0.123
AGCTAACC | -0.25
ATAGCCAT | 0.158
ATTTTTCC | 0.278
AAGACCCG | -0.152
GTACTGAC | -0.0709
TGGTTTAA | 0.198
ATAAACGC | 0.246
CAGCTCCG | -0.209

Series 3
Target: ABI1, truncated, D143A, DHFR fusion (Arabidopsis thaliana)
Technique: DHFR PCA, deep sequencing
Medium: yeast
Setting: methotrexate growth selection, single substitutions
Together with: (+)-ABA 2500 µM
Reference: wild-type fitted maximum
Direction: higher = stronger binding
Starting sequence: PYL1, truncated, DHFR fusion (Arabidopsis thaliana); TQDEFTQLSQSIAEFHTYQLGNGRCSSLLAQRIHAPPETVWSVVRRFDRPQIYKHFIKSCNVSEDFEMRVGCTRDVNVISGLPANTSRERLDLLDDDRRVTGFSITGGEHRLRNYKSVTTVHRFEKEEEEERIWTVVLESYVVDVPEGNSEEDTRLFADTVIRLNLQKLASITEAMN; partner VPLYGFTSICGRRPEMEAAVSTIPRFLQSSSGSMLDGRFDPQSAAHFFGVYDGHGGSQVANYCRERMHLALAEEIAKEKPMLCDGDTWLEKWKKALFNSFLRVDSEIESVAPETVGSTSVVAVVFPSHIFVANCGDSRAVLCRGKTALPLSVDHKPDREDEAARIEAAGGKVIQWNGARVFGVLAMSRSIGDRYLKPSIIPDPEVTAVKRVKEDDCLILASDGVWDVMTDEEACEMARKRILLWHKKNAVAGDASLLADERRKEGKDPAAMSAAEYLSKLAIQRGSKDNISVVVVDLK
Substitution | relative binding score [%]
R90V | 96.7
T101H | 89.7
K58N | 91.7
E147V | 97.4
L94F | 106
F56Y | 92
E130V | 101
H55Q | 95.9
L156T | 97.9

Series 4
Target: Prothrombin, mature alpha-thrombin (F2, Homo sapiens, UniProt P00734)
Technique: aptamer microarray, sandwich
Molecule type: DNA with 2'F-ANA
Medium: in vitro
Tested at: 200 nM
Setting: whole 15-mer aptamer, many near background
Together with: Cy3 exosite-II aptamer, 400 nM
Direction: higher = stronger binding
Sequence: GGTTGGTGTGGTTGG
Modification | mean fluorescence intensity [a.u.]
2'F-ANA at 2 3 5 9 11 12 13 15 | 120
2'F-ANA at 2 3 6 7 10 | 376
2'F-ANA at 1 2 4 5 6 10 12 | 60.5
2'F-ANA at 2 3 6 8 10 15 | 318
2'F-ANA at 1 2 3 11 12 13 15 | 317
2'F-ANA at 4 5 6 7 8 14 15 | 46
2'F-ANA at 2 8 9 10 11 12 13 14 15 | 91.1
2'F-ANA at 1 2 3 4 5 8 9 11 | 58.9
2'F-ANA at 4 5 6 7 8 9 11 12 13 14 | 50.1
2'F-ANA at 3 4 10 11 12 13 14 15 | 181
2'F-ANA at 3 5 7 9 10 11 13 14 | 53.1
2'F-ANA at 1 2 3 4 6 7 9 10 11 14 15 | 55.5
2'F-ANA at 1 2 4 6 7 9 10 11 12 14 15 | 49.2
2'F-ANA at 5 7 8 13 | 59.9
2'F-ANA at 3 4 6 9 10 14 15 | 167
2'F-ANA at 4 5 6 7 8 9 10 11 12 13 15 | 49
2'F-ANA at 2 3 4 6 7 9 10 14 | 164
2'F-ANA at 2 3 4 5 6 7 8 9 10 | 49.6
2'F-ANA at 1 2 4 5 7 8 12 13 15 | 101
2'F-ANA at 2 4 5 6 7 9 10 12 13 15 | 51.7
2'F-ANA at 2 3 6 7 11 12 14 15 | 419
2'F-ANA at 6 7 9 11 15 | 348
2'F-ANA at 1 2 9 10 11 12 15 | 71.2
2'F-ANA at 1 4 5 9 11 12 14 | 99.4

Series 5
Target: CREB5, bZIP domain (human)
Technique: DHFR protein complementation
Medium: yeast
Setting: single substitutions, most at no-binding floor
Reference: wild-type JUN-FOS pair
Direction: higher = stronger binding
Starting sequence: JUN, bZIP domain (human); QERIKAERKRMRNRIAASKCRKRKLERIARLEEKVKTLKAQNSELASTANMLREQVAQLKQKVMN; partner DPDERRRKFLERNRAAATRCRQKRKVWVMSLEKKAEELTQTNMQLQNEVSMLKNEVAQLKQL
Substitution | binding fitness [natural log]
T48W | -0.765
L31P | -1.41
R30P | -0.778
A40T | -0.232
S43H | -0.26
K36C | -0.333
L38G | -1.33
K36W | -0.744
K39D | -0.413
R30F | -0.271
E33K | -0.512
I28N | -0.726
E44W | -0.854
L59Q | -1.16
K34F | -0.676
S43Q | -0.135
L45A | -1.17
T48P | -1.38
L52G | -1.4
A40Q | -0.0578
K36A | -0.112

Series 6
Target: CCND1, cyclin fold, Cln2 fusion (human)
Technique: yeast growth competition, sequencing
Medium: yeast
Setting: weak parent motif
Reference: not given
Direction: higher = stronger binding
Starting sequence: TICRR docking peptide (human); TKVRRNLFNQELL; partner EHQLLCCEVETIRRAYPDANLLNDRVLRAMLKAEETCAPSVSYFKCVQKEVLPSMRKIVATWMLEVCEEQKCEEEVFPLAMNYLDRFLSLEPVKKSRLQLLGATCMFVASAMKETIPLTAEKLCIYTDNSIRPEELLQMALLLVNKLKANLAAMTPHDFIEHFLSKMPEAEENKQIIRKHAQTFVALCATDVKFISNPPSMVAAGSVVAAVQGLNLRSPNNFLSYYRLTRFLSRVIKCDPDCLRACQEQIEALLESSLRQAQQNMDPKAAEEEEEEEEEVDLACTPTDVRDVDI
Substitution | normalised enrichment score
TKVRANLFNQELL [R5A] | 0.271
TKVRRNLFAQELL [N9A] | 0.487
TKVRKNLFNQELL [R5K] | 0.163
TKVRRNLFNAELL [Q10A] | -0.596
TKVRRALFNQELL [N6A] | 0.226
TKVARNLFNQELL [R4A] | 0.224
TKVRRNLFNQEAL [L12A] | 0.0599

Further values, each from its own experiment
Molecule | target | assay | system | setting | scale | measurement | result
PhoQ, residues 284 288 289 292 302 303 SSCCRF | PhoP, residues 12 14 15 18 19 AQCLL (Escherichia coli, UniProt P23836) | Sort-seq, measured: YFP reporter | E. coli | PhoQ-PhoP variant library, together with: 10 µM Mg2+ | reference: high Mg2+ state, higher = stronger signaling | fold induction | 2.61

A few entries again (series 3):
Substitution | relative binding score [%]
E147V | 97.4
H55Q | 95.9
F56Y | 92
R90V | 96.7
L156T | 97.9
E130V | 101
T101H | 89.7
L94F | 106
K58N | 91.7
